# Results collected from several papers.
# Numbered parts are unrelated; each lists some results of a single study.

# Study 1
# Target: Interferon regulatory factor 7, full length, phosphomimetic (IRF7, Homo sapiens, UniProt Q92985, residues 1-503, S471D/S472D/S475D/S476D/S477D/S483D/S484D/S487D)
# Method: protein-binding microarray
# Form: double-stranded DNA, one strand shown
# Sample: in vitro
# Concentration: 2200 nM top
# Notes: 60-bp whole probe
# Together with: salmon DNA 0.4 mg/ml
# Baseline: random background probes
# Direction: higher = stronger binding
# Construct (chain): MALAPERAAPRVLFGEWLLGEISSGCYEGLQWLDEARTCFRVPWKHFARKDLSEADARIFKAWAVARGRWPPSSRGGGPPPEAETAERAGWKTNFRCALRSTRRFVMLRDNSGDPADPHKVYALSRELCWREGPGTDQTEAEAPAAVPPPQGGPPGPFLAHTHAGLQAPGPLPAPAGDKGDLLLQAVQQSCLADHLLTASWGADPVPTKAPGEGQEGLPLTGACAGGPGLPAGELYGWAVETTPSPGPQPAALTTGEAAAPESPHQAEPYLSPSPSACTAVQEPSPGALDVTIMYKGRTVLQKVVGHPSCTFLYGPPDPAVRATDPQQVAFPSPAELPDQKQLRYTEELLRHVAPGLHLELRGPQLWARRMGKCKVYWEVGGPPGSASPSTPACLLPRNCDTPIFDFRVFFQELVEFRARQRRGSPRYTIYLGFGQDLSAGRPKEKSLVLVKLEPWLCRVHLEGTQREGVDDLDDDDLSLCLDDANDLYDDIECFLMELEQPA
Oligonucleotide,fitted relative affinity [z-score]
GCCTAGCACTTAGGTTTCGGACTGTGTTAGTGCTAGGTCTTGATTCGCTTGACGCTGCTG,3.65
GCCTAGCACTTAGGTATCGGGTTTCGGGTAGTGCTAGTCTTGATTCGCTTGACGCTGCTG,2.62
GCCTAGCACTTAGGTATCGGTCTTGGTTAGTGCTAGGTCTTGATTCGCTTGACGCTGCTG,0.859
GCCTAGCACGACGCTATCGACACTGGGGACGTGCTAGTCTTGATTCGCTTGACGCTGCTG,0.05

# Study 2
# Target: Histone acetyltransferase KAT6A, both winged helices, GST fusion (KAT6A, Homo sapiens, UniProt Q92794, residues 1-181)
# Method: protein binding microarray
# Form: double-stranded DNA, one strand shown
# Sample: in vitro
# Concentration: not given
# Notes: 8-mer, flanks averaged, mean of 2 arrays, mostly near background
# Baseline: not given
# Direction: higher = stronger binding
# Target sequence (chain): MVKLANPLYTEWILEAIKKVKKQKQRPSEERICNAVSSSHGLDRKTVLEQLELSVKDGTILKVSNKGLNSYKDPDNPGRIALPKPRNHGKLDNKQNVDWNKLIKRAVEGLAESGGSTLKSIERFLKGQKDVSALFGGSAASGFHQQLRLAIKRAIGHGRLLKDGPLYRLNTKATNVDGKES
Oligonucleotide,E-score
CCGATAGG,0.0972
AGTATGCA,-0.168
AGCGGTTC,0.0999
GAATAACC,-0.0102

# Study 3
# Target: Max-binding protein MNT, bHLH-zipper, MAX partner unstated (MNT, Homo sapiens, UniProt Q99583, residues 220-300)
# Method: protein-binding microarray
# Form: double-stranded DNA, one strand shown
# Sample: in vitro
# Concentration: not given
# Notes: k-mer, scored over probes, only values ≥0.25
# Direction: higher = stronger binding
# Target sequence (chain): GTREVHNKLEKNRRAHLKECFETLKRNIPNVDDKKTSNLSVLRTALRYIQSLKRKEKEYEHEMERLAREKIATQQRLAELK
Oligonucleotide,E-score
GCCCCTCC,0.293
ACTCCACG,0.335
CAATCACG,0.334
CCCCACCA,0.312

# Single results of other studies
Substance,target,test,system,conditions,how to read,measurement,value
"PhoQ, residues 284 288 289 292 302 303 NLMGRA","PhoP, residues 12 14 15 18 19 HLGGL (Escherichia coli, UniProt P23836)","Sort-seq, measured: YFP reporter",E. coli,"PhoQ-PhoP variant library, together with: 10 µM Mg2+","baseline: high Mg2+ state, higher = stronger signaling",fold induction,2.86
